# Measurements of several laboratories.
# Parts stem from different laboratories: compare values within a part only. Changes are numbered by the printed parent chain.

# Block 1 — technique: RNA Bind-n-Seq; form: RNA; sample: in vitro; concentration: 200 nM; notes: whole 134-nt RNA, ends assumed; together with: 150 mM KCl; reference: input library; reading: higher = stronger binding
# Target: Ras GTPase-activating protein-binding protein 1, full length (G3BP1, Homo sapiens, UniProt Q13283)
# Sequence of UniProt Q13283 (whole entry, looked up): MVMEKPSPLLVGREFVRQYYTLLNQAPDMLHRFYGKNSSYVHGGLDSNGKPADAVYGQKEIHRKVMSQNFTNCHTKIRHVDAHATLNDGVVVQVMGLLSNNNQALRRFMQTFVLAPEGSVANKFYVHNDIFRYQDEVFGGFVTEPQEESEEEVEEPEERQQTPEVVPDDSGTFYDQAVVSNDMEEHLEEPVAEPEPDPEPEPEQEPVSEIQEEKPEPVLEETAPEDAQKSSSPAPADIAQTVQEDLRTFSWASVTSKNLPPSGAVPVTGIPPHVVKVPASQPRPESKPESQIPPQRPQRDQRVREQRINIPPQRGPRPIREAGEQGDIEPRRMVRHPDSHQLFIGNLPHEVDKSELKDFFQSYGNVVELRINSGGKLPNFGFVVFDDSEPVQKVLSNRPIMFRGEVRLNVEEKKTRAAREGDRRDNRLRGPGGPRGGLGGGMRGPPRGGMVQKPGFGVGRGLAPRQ
# Constant ends, left off below: GGGAGUUCUACAGUCCGACGAUC … UGGAAUUCUCGGGUGUCAAGG
Sequence,log2 enrichment
CAAGUCCUGUGCUACACAUCGUAUGUACCGAAUCGGUUUUUGGUGGUUUUUUUGGAAAGUAUUAUGUUACGCCGUUCGGAUCUGCACUUC,-1.12
UUUUCAUACCGAUCUAGAGUUCGUCCUUGCGUGGUUUAUGGUGGUGCCGAUAUUGGUCAGCAGAUUCGAGACUUGGAACGUGGAUGCCAU,-0.102
AGUCCUGUGCUACACAUCGUAUGUACCGAAUCAAACCCAAAUUUUUUUAAACCCAAAAAAGUAUUAUGUUACGCCGUUCGGAUCUGCACU,-0.479
UCCUGUGCUACACAUCGUAUGUACCGAAUCAAAUUUUUAAAUUUUUAAAUUUUUUUAAAAAAGUAUUAUGUUACGCCGUUCGGAUCUGCA,-0.595
GUCCUGUGCUACACAUCGUAUGUACCGAAUCGGGGAAAGGGGUUUGGGGAAAAAGGGGAAAGUAUUAUGUUACGCCGUUCGGAUCUGCAC,0.519
ACCAUGCAGGUGGGCAUCUUUGGGAAGUGGGGCAAAAAGGGGAUAGGGAGGGGGGUAACACUUUGGGAACAGGUGGUCCCAGGUCGUUUC,0.849
GCAGGAAGUAAAAACAAAUGGAAAUGCUUCGGAUAGUGGCAGGGGUGGGGGUUGCUAAGGAAAGGGUGGGAUGGGAGUGGGUAAAGAAUU,1.24

# Block 2 — target: CCNB2, cyclin fold, Cln2 fusion (human); technique: yeast growth competition, sequencing; sample: yeast; notes: weak parent motif; reference: not given; reading: higher = stronger binding
# Starting sequence: CDKN1B docking peptide (human); PSACRNLFGPVDH; partner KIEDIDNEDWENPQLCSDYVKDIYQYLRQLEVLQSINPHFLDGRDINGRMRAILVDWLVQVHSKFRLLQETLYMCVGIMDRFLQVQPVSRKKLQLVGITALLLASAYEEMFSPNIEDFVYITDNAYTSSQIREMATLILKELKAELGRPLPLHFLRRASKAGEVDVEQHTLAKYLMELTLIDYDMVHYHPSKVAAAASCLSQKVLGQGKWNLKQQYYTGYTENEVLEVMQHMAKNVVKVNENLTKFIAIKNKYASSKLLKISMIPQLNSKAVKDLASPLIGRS
Substitution,normalised enrichment score
P1G,0.0399
L7I,0.355
R5P,-0.338
P10K,-0.101
L7M,0.291
L7R,0.32
L7C,-0.29
S2G,-0.216

# Block 3 — technique: protein-binding microarray; form: double-stranded DNA, one strand shown; sample: in vitro; concentration: 250 nM; notes: 60-bp whole probe; together with: salmon DNA 0.4 mg/ml; reference: random background probes; reading: higher = stronger binding; constant ends, left off below: GCCTAGCAC … GTCTTGATTCGCTTGACGCTGCTG
# Target: Interferon regulatory factor 5, full length, phosphomimetic (IRF5, Homo sapiens, UniProt Q13568-2, residues 1-514, K96S/S451D/S453D/S456D/S462D)
Sequence,log fluorescence [z-score]
TTAGATAACGGGACTGGATTAGTGCTA,-0.000758
GACGGTTTCGGCTATCGGGACGTGCTA,7.53
TCAAGTATTTATCTGCAACTGTGCTAG,0.617
TTACATCTCAGTTTCGATTAGTGCTAG,9.73
GACGAACTGTGTCTCGAGACGTGCTAG,-0.237
GACGGACTGAGTCTCGGGACGTGCTAG,-0.294
ATATATGTAATCATTCACCTGGTGCTA,0.523
TCATTTTTTACTTCGGGACTGTGCTAG,0.767
GACGGTTTAGGTCTCGGGACGTGCTAG,-0.0947
TCATATGCCGACTTTGGAACTGTGCTA,0.178

# Single results of other studies
Substance,target,test,system,setting,scale,measurement,value
"PhoQ, residues 284 288 289 292 302 303 SCEHLI","PhoP, residues 12 14 15 18 19 TPLRH (Escherichia coli, UniProt P23836)","Sort-seq, measured: YFP reporter",E. coli,"PhoQ-PhoP variant library, together with: 10 µM Mg2+","reference: high Mg2+ state, higher = stronger signaling",fold induction,0.524

# Excerpt of the above (block 2):
Substitution,normalised enrichment score
R5P,-0.338
P1G,0.0399
P10K,-0.101
S2G,-0.216
